{"data": "Results of several laboratories", "note": "Compare with care: the assays were run in different laboratories. ± gives the spread as reported."}
{"Structure (SMILES)": "Cc1ccc2c(n1)c(-c1cccc(S(C)(=O)=O)c1)c(C)n2C/C(F)=C/CN", "system": "male Wistar rat, plasma", "setting": "oral, 10 mg/kg, single dose", "Tmax [h]": "~3"}
{"Structure (SMILES)": "CC(C)C[C@@H](NC(=O)[C@@H](Cc1ccccc1)NC(=O)[C@H](N)Cc1ccccc1)C(=O)N[C@H](CCCCN)C(=O)N1CCC(N)(C(=O)O)CC1", "system": "human, plasma", "setting": "intravenous, 15 µg/kg", "Tmax [h]": 0.1}
{"Structure (SMILES)": "CSCC[C@H](NC(=O)[C@H](CO)NC(=O)[C@H](Cc1ccc(O)cc1)NC(=O)[C@@H](N)CO)C(=O)N[C@@H](CCC(=O)O)C(=O)N[C@@H](Cc1c[nH]cn1)C(=O)N[C@@H](Cc1ccccc1)C(=O)N[C@@H](CCCNC(=N)N)C(=O)N[C@@H](Cc1c[nH]c2ccccc12)C(=O)NCC(=O)N[C@@H](CCCCN)C(=O)N1CCC[C@H]1C(=O)N[C@H](C(=O)NCC(=O)N[C@@H](CCCCN)C(=O)N[C@@H](CCCCN)C(=O)N[C@@H](CCCNC(=N)N)C(=O)N[C@@H](CCCNC(=N)N)C(=O)N1CCC[C@H]1C(=O)N[C@H](C(=O)N[C@@H](CCCCN)C(=O)N[C@H](C(=O)N[C@@H](Cc1ccc(O)cc1)C(=O)N1CCC[C@H]1C(=O)N[C@@H](CC(=O)O)C(=O)NCC(=O)N[C@@H](C)C(=O)N[C@@H](CCC(=O)O)C(=O)N[C@@H](CC(=O)O)C(=O)N[C@@H](CCC(=O)O)C(=O)N[C@@H](CC(C)C)C(=O)N[C@@H](C)C(=O)N[C@@H](CCC(=O)O)C(=O)N[C@@H](C)C(=O)N[C@@H](Cc1ccccc1)C(=O)N1CCC[C@H]1C(=O)N[C@@H](CC(C)C)C(=O)N[C@@H](CCC(=O)O)C(=O)N[C@@H](Cc1ccccc1)C(=O)O)C(C)C)C(C)C)C(C)C", "system": "human, plasma", "setting": "subcutaneous, RCI 80 IU, day 4", "Tmax [h]": 1}
{"Structure (SMILES)": "CCCCCCCC(=O)OC[C@H](NC(=O)[C@H](CO)NC(=O)CN)C(=O)N[C@@H](Cc1ccccc1)C(=O)N[C@@H](CC(C)C)C(=O)N[C@@H](CO)C(=O)N1CCC[C@H]1C(=O)N[C@@H](CCC(=O)O)C(=O)N[C@@H](Cc1cnc[nH]1)C(=O)N[C@@H](CCC(N)=O)C(=O)N[C@@H](CCCNC(=N)N)C(=O)N[C@H](C(=O)N[C@@H](CCC(N)=O)C(=O)N[C@@H](CCC(N)=O)C(=O)N[C@@H](CCCNC(=N)N)C(=O)N[C@@H](CCCCN)C(=O)N[C@@H](CCC(=O)O)C(=O)N[C@@H](CO)C(=O)N[C@@H](CCCCN)C(=O)N[C@@H](CCCCN)C(=O)N1CCC[C@H]1C(=O)N1CCC[C@H]1C(=O)N[C@@H](C)C(=O)N[C@@H](CCCCN)C(=O)N[C@@H](CC(C)C)C(=O)N[C@@H](CCC(N)=O)C(=O)N1CCC[C@H]1C(=O)N[C@@H](CCCNC(=N)N)C(=O)O)C(C)C", "test": "two-site ELISA, item: DAG", "system": "human, plasma", "setting": "intravenous infusion, 1 µg/kg/h, 210 min", "Tmax [h]": "1.82 ± 1.23"}
{"Structure (SMILES)": "CCc1c2c(nc3ccc(OC4OC(C(=O)O)C(O)C(O)C4O)cc13)-c1cc3c(c(=O)n1C2)COC(=O)C3(O)CC (stereo not shown)", "system": "human patients, plasma", "setting": "intravenous, 32 mg/m^2 of parent drug", "Tmax [h]": 5.69}
{"Structure (SMILES)": "N#CC1(c2ccc3c(N)ncnn23)OC(COP(=O)(O)OP(=O)(O)OP(=O)(O)O)C(O)C1O (stereo not shown)", "test": "LC-MS/MS", "system": "CD-1 mouse male, kidney", "setting": "oral, 100 mg/kg of remdesivir", "Tmax [h]": 2}
{"Structure (SMILES)": "Cc1cc(Nc2nc(C[C@@]3(C(=O)O)CCN(Cc4cccc(Cl)c4F)[C@H](C)C3)cc(C)c2F)n[nH]1", "system": "BALB/c nude mouse, female, NCI-H446 xenograft, tumour", "setting": "oral, 10 mg/kg", "Tmax [h]": "≤ 1"}
{"Structure (SMILES)": "CC(=CCC(O)C(C)=Cc1csc(C)n1)CC=CC(C)C(O)C(C)C(=O)C(C)(C)C(O)CC(=O)O (stereo not shown)", "system": "human, plasma", "setting": "intravenous infusion, 27 mg/m2 KOS-1584, 3 h infusion, cycle 1", "Tmax [h]": "3.65 ± 0.4"}
{"Structure (SMILES)": "CCOC(=O)[C@@H]1Cc2c(cc([N+](=O)[O-])cc2[N+](=O)[O-])[C@H](O)[C@]12C(=O)Nc1ccc(Br)cc12", "system": "Sprague-Dawley rat, plasma", "setting": "oral, 15 mg/kg", "Tmax [h]": 4.03}
{"Structure (SMILES)": "CCCCCCCC/C=C\\CCCCCCCCOP(O)(O)=S.N", "system": "mouse, male, nonirradiated", "setting": "sc, dose not given", "Tmax [h]": 0.5}
